Results of several laboratories.
Parts stem from different laboratories: compare values within a part only. “And” joins repeats or separate records; there may be more than shown.
UniProt P45984, sequence (whole entry, looked up): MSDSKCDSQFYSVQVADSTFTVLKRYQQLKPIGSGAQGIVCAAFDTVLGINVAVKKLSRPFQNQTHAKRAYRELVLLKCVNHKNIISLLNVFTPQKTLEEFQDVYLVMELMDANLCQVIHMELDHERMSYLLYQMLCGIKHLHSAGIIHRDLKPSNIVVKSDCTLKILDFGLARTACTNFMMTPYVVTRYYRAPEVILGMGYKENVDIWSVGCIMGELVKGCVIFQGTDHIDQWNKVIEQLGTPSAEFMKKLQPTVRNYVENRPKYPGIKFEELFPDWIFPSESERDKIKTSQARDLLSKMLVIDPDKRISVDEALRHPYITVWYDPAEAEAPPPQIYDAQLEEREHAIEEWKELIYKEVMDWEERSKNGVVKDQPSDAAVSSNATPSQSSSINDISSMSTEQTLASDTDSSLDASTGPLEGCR

Study 1
SMILES: CC(C)n1cnc(-c2ccc(F)cc2)c1-c1ncc(C(=O)Nc2ccc(N3CCN(C)CC3)cc2)[nH]1
Host: idiopathic pulmonary fibrosis patients
| method | measured | dose | notes | adverse event incidence |
| --- | --- | --- | --- | --- |
| phase 2a trial | hydroxybutyrate dehydrogenase increased | 60 mg once daily | grade 2 | 0% |
| – | – | dose not given | ECG high voltage grade 5 | 0% |
| phase 2a trial | ECG ST segment abnormal | 60 mg once daily | grade 3 | 0% |
| phase 2a trial | carotid intima-media thickening | dose not given | grade 4, all arms pooled | 0% |
| phase 2a trial | immunoglobulins increased | dose not given | grade 4, all arms pooled | 0% |
| phase 2a trial | chronic gastritis | 60 mg once daily | grade 2 | 0% |
| phase 2a trial | arthritis | 60 mg once daily | grade 4 | 0% |
| phase 2a trial | carotid intima-media thickening | 60 mg once daily | grade 4 | 0% |
| phase 2a trial | gingivitis | 30 mg once daily | grade 1 | 0% |
| phase 2a trial | general and administration site disorders | 60 mg once daily | grade 3 | 0% |
| phase 2a trial | gingivitis | dose not given | grade 1, all arms pooled | 0% |
| phase 2a trial | general and administration site disorders | dose not given | grade 3, all arms pooled | 0% |
| phase 2a trial | carotid intima-media thickening | dose not given | grade 2, all arms pooled | 0% |
| phase 2a trial | gingivitis | 60 mg once daily | grade 4 | 0% |
| phase 2a trial | drug eruption | 60 mg once daily | grade 3 | 0% |
| phase 2a trial | proteinuria | dose not given | grade 5, all arms pooled | 0% |
| phase 2a trial | QRS axis abnormal | 60 mg once daily | grade 1 | 0% |

Study 2
Target: Serine/threonine-protein kinase N1 (PKN1, Homo sapiens, UniProt Q16512)
UniProt Q16512, sequence (whole entry, looked up): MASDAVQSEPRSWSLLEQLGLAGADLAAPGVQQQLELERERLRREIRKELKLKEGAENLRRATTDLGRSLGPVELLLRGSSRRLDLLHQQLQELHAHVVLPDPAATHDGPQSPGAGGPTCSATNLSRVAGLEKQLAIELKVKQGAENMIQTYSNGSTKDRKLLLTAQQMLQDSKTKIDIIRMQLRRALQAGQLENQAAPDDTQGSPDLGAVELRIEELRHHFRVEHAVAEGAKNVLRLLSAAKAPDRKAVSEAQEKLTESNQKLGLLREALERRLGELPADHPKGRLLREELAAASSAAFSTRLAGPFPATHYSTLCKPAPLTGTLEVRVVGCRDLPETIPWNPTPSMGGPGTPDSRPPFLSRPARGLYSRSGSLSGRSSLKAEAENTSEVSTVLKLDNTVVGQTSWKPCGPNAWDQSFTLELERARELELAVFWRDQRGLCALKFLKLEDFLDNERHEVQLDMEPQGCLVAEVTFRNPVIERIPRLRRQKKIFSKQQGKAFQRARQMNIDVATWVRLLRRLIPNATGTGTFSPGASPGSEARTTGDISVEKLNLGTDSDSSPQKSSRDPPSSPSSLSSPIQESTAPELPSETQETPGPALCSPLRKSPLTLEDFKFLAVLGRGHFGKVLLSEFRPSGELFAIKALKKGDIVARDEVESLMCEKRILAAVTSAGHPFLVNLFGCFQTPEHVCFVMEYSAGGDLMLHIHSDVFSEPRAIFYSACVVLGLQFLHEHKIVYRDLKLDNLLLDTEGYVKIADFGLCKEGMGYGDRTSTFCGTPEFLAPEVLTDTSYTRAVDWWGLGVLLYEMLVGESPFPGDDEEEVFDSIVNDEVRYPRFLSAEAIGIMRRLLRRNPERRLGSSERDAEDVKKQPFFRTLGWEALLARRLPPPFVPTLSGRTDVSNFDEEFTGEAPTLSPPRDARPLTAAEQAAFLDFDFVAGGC
Observed: enzyme activity
Action: inhibitor
Tested at: 0.5 µM
Baseline: control
| SMILES | remaining activity [%] |
| --- | --- |
| O=C(NC(NC(=S)Nc1ccc(F)c([N+](=O)[O-])c1)C(Cl)(Cl)Cl)C(c1ccccc1)c1ccccc1 (centres unmarked) | 92.8 |
| O=C1C(Cl)=C(N2C(=O)CCC2=O)C(=O)c2ccccc21 | 108 |
| COc1cc2ncnc(Nc3ccc(O)c(Br)c3)c2cc1OC | 95.6 |
| N#Cc1c(NC(=O)c2cccc3ccccc23)sc2c1CCCC2 | 108 |
| c1ccc(-c2[nH]ncc2-c2ccnc3ccccc23)nc1 | 100 |
| Ic1cccc(CSc2nnc(-c3ccncc3)o2)c1 | 98.6 |
| CN(C)C[C@H]1CCn2c(c(C3=C(c4cn(C)c5ccccc45)C(=O)NC3=O)c3ccccc32)C1 | 7.06 |
| CCN(CC)CCNC(=O)c1c(C)[nH]c(/C=C2\C(=O)Nc3ccc(F)cc32)c1C | 71.4 |
| CCOc1nc(NC(=O)Cc2cc(OC)ccc2OC)cc(N)c1C#N | 104 |
| O=C1c2ccccc2-c2n[nH]c3cccc1c23 | 90.6 |
| O=C(Nc1cccc(Nc2nccc(Nc3cccc(C(F)(F)F)c3)n2)c1)C1CC1 | 93.3 |
| CCN(CC)C(=O)c1ccc(Nc2nc(OCC3CCCCC3)c3[nH]cnc3n2)cc1 | 78.9 |
| COc1cc2c(cc1OC)-c1[nH]nc(Nc3cccc(F)c3)c1C2 | 106 |
| Cn1nc2c3c(cccc31)C(=O)c1ccccc1-2 | 101 |
| CCN(CC)CCNC(=O)c1c(C)[nH]c(/C=C2\C(=O)Nc3ccc(Cl)cc32)c1C | 36.5 |
| Cc1nc2cc3nc(-c4cccs4)cnc3cc2n1C | 96.5 |
| Cc1cc2ncc(-c3ccccc3)nc2cc1C | 92.5 |
| c1ccc(-c2cnc(Nc3ccc(OCCN4CCCC4)cc3)s2)cc1 | 94.8 |
| CN([C@@H](Cc1ccc(OS(=O)(=O)c2cccc3cnccc23)cc1)C(=O)N1CCN(c2ccccc2)CC1)S(=O)(=O)c1cccc2cnccc12 | 105 |
| Nc1cccc(-c2cc3c(Oc4cccc(O)c4)ncnc3[nH]2)c1 | 105 |
| COc1cc2ncnc(Nc3cccc(Cl)c3)c2cc1OC | 96.8 |
| C[C@@H]1CCN(C(=O)CC#N)C[C@@H]1N(C)c1ncnc2[nH]ccc12 | 16.5 |
| O=c1cc(-c2cccc3c2Sc2ccccc2S3)oc(N2CCOCC2)c1 | 94.4 |
| Cc1cn(-c2cc(NC(=O)c3ccc(C)c(Nc4nccc(-c5cccnc5)n4)c3)cc(C(F)(F)F)c2)cn1 | 102 |
| N#C/C(=C\c1ccc(O)c(O)c1)C(=O)NCc1ccccc1 | 97.6 |

Study 3
Target: DNA polymerase theta, ATPase domain (POLQ, Homo sapiens, UniProt O75417)
UniProt O75417, sequence (whole entry, unmodified, looked up): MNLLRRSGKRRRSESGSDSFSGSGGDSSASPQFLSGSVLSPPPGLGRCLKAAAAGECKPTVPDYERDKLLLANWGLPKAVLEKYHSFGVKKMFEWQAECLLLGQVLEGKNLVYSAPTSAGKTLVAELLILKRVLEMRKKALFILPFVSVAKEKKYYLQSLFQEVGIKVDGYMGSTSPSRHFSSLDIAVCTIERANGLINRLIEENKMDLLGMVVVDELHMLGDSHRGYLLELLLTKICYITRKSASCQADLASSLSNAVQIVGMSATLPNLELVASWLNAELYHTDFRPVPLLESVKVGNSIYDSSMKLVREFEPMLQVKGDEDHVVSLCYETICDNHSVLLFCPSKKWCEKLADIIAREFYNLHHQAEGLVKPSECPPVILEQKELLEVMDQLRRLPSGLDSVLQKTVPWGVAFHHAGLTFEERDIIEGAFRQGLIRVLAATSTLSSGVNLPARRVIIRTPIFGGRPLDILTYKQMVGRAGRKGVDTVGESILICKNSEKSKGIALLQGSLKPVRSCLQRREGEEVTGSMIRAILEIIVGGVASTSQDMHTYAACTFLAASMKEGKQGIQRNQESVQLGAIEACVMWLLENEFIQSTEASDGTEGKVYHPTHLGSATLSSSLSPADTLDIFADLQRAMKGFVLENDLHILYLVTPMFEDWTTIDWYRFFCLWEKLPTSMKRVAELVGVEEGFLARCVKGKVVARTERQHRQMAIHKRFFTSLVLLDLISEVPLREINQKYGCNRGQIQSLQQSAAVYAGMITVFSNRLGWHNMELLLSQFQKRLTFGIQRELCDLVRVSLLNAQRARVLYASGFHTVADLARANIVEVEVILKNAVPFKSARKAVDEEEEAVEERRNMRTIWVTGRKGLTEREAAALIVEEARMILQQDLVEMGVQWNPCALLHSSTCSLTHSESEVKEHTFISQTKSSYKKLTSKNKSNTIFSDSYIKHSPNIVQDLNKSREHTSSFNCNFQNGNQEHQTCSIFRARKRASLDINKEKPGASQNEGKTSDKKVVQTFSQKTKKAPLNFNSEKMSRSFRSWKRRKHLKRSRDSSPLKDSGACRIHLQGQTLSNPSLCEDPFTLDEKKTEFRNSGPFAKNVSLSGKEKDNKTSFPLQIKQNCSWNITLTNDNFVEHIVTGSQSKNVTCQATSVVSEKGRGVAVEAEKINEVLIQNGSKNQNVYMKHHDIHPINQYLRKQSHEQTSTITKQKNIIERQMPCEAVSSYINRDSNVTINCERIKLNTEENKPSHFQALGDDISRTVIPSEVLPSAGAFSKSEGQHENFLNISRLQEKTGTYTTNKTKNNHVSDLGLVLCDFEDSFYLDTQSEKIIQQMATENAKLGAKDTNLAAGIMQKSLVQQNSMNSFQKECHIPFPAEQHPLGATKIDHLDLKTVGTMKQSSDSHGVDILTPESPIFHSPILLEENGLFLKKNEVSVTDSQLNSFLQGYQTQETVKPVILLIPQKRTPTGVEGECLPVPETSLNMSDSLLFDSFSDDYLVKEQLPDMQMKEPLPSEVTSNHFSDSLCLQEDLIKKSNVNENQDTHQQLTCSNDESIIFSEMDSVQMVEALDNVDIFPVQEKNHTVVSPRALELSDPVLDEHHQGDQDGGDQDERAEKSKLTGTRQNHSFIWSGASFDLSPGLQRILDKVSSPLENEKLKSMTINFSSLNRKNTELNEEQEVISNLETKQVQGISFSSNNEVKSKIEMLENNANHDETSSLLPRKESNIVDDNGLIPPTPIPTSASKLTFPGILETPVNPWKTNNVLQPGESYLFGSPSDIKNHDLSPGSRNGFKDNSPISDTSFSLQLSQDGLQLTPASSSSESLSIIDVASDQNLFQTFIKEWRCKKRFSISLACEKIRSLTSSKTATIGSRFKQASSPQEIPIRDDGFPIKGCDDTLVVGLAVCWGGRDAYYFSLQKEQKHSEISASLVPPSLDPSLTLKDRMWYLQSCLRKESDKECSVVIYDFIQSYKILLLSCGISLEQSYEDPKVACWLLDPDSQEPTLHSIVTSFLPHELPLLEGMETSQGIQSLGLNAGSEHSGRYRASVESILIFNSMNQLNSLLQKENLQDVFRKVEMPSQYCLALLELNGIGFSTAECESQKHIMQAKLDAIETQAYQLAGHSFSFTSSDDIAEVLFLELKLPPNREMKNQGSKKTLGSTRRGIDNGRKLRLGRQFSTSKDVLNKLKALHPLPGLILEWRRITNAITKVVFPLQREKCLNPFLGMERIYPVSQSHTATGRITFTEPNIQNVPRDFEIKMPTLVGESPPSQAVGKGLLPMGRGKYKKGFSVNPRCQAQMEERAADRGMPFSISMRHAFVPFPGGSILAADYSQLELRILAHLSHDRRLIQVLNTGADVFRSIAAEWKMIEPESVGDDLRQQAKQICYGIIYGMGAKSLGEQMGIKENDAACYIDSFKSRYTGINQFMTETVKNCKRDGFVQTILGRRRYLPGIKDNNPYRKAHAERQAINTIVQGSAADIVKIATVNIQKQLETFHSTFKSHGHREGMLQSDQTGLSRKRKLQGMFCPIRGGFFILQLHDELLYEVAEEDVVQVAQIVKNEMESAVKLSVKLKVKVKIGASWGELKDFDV
Observed: enzyme activity
Action: inhibitor
Tested at: 77 µM
Baseline: untreated
| SMILES | remaining activity |
| --- | --- |
| C[C@H]1[C@H](NC(=O)/C(=N\OC(C)(C)C(=O)O)c2csc(N)n2)C(=O)N1S(=O)(=O)O | 102% and 101% |
| CN1CCCN(C(c2ccccc2)c2ccc(Cl)cc2)CC1 (centres unmarked) | 103% |
| CCN(CC)C(=O)c1ccc(O)c(OC)c1 | 106% and 104% |
| C[C@H]1COc2c(N3CCN(C)CC3)c(F)cc3c(=O)c(C(=O)O)cn1c23 | 88.1% |
| C/C(=C(\CCOP(=O)(O)O)SC(=O)c1ccccc1)N(C=O)Cc1cnc(C)nc1N | 110% |
| CN(C)[C@@H]1C(O)=C(C(=O)NCN2CCCC2)C(=O)[C@@]2(O)C(O)=C3C(=O)c4c(O)cccc4[C@@](C)(O)[C@H]3C[C@@H]12 | 101% |
| O=C(O)CCC(=O)Nc1ccc(S(=O)(=O)Nc2nccs2)cc1 | 95% |

Study 4
SMILES: CCOC(=O)c1cc2cc(-c3cc(C(=O)NCc4ccc(C(=O)O)cc4)nn3C)ccc2[nH]1
Observed: cell-free assay
Method: competition with immobilised ligand
Tested at: 0.1 µM
| target | remaining binding [%] |
| --- | --- |
| Cyclin-dependent kinase-like 2 (CDKL2, Homo sapiens, UniProt Q92772) | 88 |
| Mast/stem cell growth factor receptor Kit (KIT, Homo sapiens, UniProt P10721, A829P) | 95 |
| Leucine-rich repeat serine/threonine-protein kinase 2 (LRRK2, Homo sapiens, UniProt Q5S007) | 81 |
| Mitogen-activated protein kinase 9 (MAPK9, Homo sapiens, UniProt P45984) | 96 |
| Serine/threonine-protein kinase RIO3 (RIOK3, Homo sapiens, UniProt O14730) | 100 |
| Mitogen-activated protein kinase kinase kinase 4 (MAP3K4, Homo sapiens, UniProt Q9Y6R4) | 91 |
| Serine/threonine-protein kinase PAK 3 (PAK3, Homo sapiens, UniProt O75914) | 77 |
| Receptor-type tyrosine-protein kinase FLT3, autoinhibited (FLT3, Homo sapiens, UniProt P36888) | 98 |
| Serine/threonine-protein kinase RIO1 (RIOK1, Homo sapiens, UniProt Q9BRS2) | 96 |
| Mitogen-activated protein kinase 3 (MAPK3, Homo sapiens, UniProt P27361) | 88 |
| Serine/threonine-protein kinase tousled-like 2 (TLK2, Homo sapiens, UniProt Q86UE8) | 93 |
| Ribosomal protein S6 kinase alpha-3, C-terminal kinase domain (RPS6KA3, Homo sapiens, UniProt P51812) | 80 |
| Tyrosine-protein kinase Fgr (FGR, Homo sapiens, UniProt P09769) | 94 |
| Receptor-type tyrosine-protein kinase FLT3 (FLT3, Homo sapiens, UniProt P36888) | 90 |
| Serine/threonine-protein kinase/endoribonuclease IRE1 (ERN1, Homo sapiens, UniProt O75460) | 90 |
| Mitogen-activated protein kinase 4 (MAPK4, Homo sapiens, UniProt P31152) | 86 |

For quick reference, copied from above (study 4):
| target | remaining binding [%] |
| --- | --- |
| Mitogen-activated protein kinase kinase kinase 4 (MAP3K4, Homo sapiens, UniProt Q9Y6R4) | 91 |
| Serine/threonine-protein kinase PAK 3 (PAK3, Homo sapiens, UniProt O75914) | 77 |
| Receptor-type tyrosine-protein kinase FLT3, autoinhibited (FLT3, Homo sapiens, UniProt P36888) | 98 |
| Serine/threonine-protein kinase RIO1 (RIOK1, Homo sapiens, UniProt Q9BRS2) | 96 |
| Mitogen-activated protein kinase 3 (MAPK3, Homo sapiens, UniProt P27361) | 88 |
| Serine/threonine-protein kinase tousled-like 2 (TLK2, Homo sapiens, UniProt Q86UE8) | 93 |
| Ribosomal protein S6 kinase alpha-3, C-terminal kinase domain (RPS6KA3, Homo sapiens, UniProt P51812) | 80 |
| Tyrosine-protein kinase Fgr (FGR, Homo sapiens, UniProt P09769) | 94 |
| Receptor-type tyrosine-protein kinase FLT3 (FLT3, Homo sapiens, UniProt P36888) | 90 |
